Measurements collected from several papers.
Parts stem from different laboratories: compare values within a part only.

Block 1 — technique: RNA Bind-n-Seq; form: RNA; medium: in vitro; concentration: 365 nM; baseline: no-protein control; reading: higher = stronger binding; quantity: RBNS enrichment (R)
Target: RNA binding protein fox-1 homolog 2, RRM domain, GST-SBP tag (RBFOX2, Homo sapiens, UniProt O43251-10, residues 100-194)
Setting: natural RNA segment, single round, ends assumed
All sequences stand within: GGGAGUUCUACAGUCCGACGAUC … UGGAAUUCUCGGGUGCCAA
Target sequence (chain): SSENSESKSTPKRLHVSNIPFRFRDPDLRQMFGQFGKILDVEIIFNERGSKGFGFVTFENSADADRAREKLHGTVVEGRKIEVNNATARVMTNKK
Sequence = GGGUUUCUGAAAAACAGCAGGAUUAAGUACUGAAAGAGCCCAACACAAUUACCCUGUAAACUCUCUGUUAGGGCAACCACCACCACCUGUCUUCCAGGACACAUUUUUAG; result = 0.5
Sequence = AGCAUGAUCGGGGACUAAGUUCUCACCCCAGCACUAAAUAAAUAAAACCAAGUCAACAGCCAUCAAGCAGAUAUAUCCCAGGCCGCCCAGGAUGUGUGUCCUCCCUUGUG; result = 8.55
Sequence = AAGCAUCUUCAGUGCUCACAAUCAUGUGUCCCCUAGCCUCACCCCUGCAGUUCAGGCCUGUUUCUGUCAGAGUCAGGAACAUCUCUGAAUUAUGGAACAUUGUCUGUACC; result = 0.266
Sequence = GAUGGGCCCUAUACCUCCAGCCGUGAAUGCCAGACUUUAGAUUGCCCGGAGGAAGCAAACUCUUCGUAUAAAAAAAGCAGGCCAUCUGCUUAACCCUUGGCUCCACCAUA; result = 0.747
Sequence = AACCGUCUGUAAUCAGUACAGCCACCCAAAGGGCUAUAGUUCUCAAUUAAAAUGCAAAUGGAUAUCUACUCUCGUGUUGUGUGCCUCAUCUCCUCUGACAGGGCUAUGGU; result = 0.602
Sequence = GAUGUUGGUCCACAUUGUCAAGAAGUCAUGUAAUAAUAAUAAAUACAUAUUCUACCUGCUACUUGAACCAUGAGUUUUGCACACCAGAGGUUUAAUGUUUAAGUGUUGGA; result = 0.524
Sequence = GUUCUGCCCAGCCCCCGUCCCGCUCCCACCUAAAGCCUGAGUUGGCUGAGCCAAAUGCCCAGCACUGCCCCCACCUAACUGGGCACUUGUCUAGGGCACACCACCCCCAG; result = 0.42
Sequence = AUUCUGAGGUCACAUAACACAUAAAAUUAGUUUCUAUGAGUGUAUACCAUUUAAAGAAUUUUUUUUUCAGUAAAAGGGAAUAUUACAAUGUUGGAGGAGAGAUAAGUUAU; result = 0.539
Sequence = GCUACAGCACCAUCGCGUGCAUAGUGGGGAGCGACCUUAUAAGUGUGAUGACUGUGGAAAGGCCUUCUCGCAGAGCUCCGACCUCAUCCGCCACCAGCGGACCCACGCAG; result = 0.213
Sequence = GGAGCAGACUGUUUUAAGUUGCUCAGGAGCCUGAUGGAACCAUGAACCGAGACUCUUCUCUGUUUCCUGCCAAGACCUCAUCUGCACUAAUGCCUUCUCCCUGACCUUGA; result = 0.553
Sequence = AGGCAGCCUAGCCUAUGUCUGGCAGAUGAGGGCUGGCUGCCGUUUUCUGGGCUGAUGGGUGCCCUUUCCUGGCAGUCUCAGUCCAAAAGUGUUGACUGUGUCAUUAGUCC; result = 0.261
Sequence = UUAGUGCUGGAGUAAAAGGUCAAGUCCAACACCUGCCUUAAAUUUAAAUCAUGUGAUUUAUAGUUUUUAAGUUGGCAUAAUUCAACUUAUGGUAUAACUGGGUCCCUCAA; result = 0.435

Block 2 — technique: RNA Bind-n-Seq; form: RNA; medium: in vitro; concentration: not given; setting: RNA with constant flanks, ends assumed; baseline: input RNA pool; reading: higher = stronger binding; quantity: bound/input enrichment
Target: RING finger protein unkempt homolog, zinc fingers 1-6, GST-SBP tag (UNK, Homo sapiens, UniProt Q9C0B0, residues 30-357)
All sequences stand within: GGGAGUUCUACAGUCCGACGAUC … CAACAGAGGAUUGAGCAUCA
Residues (chain): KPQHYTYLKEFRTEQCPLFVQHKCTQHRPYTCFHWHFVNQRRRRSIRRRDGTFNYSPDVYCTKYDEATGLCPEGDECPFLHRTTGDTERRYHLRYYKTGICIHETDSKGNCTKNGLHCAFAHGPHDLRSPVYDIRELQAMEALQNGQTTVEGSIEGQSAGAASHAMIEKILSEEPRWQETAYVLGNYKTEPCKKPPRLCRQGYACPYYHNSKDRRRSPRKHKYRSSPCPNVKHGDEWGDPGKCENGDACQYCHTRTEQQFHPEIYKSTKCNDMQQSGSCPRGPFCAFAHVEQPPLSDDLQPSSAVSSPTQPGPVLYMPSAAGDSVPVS
Sequence = AAUGAAACUGCAGAAAAAAAUUUGGGAGUCCUGGCAGAUGAAGACAAUACAUUGCAACAGAACCGCAGCAGUAAUAUCAGUUACAGCAAUGCAAUGCAGAAAGAAAUCACACUGCCUUCA; result = 0.151 ratio
Sequence = AAGAAAAUGCAUAUACAAAGUGCUGUGUCCAAAAUGAACCCUGGGGAGAAAGAACCCAUUCACCGAGGAACUACUGAAGUGAAUAUAGAUUCUGAAACUGUUCAUAGAAUGUUACUGAGU; result = 0.316 ratio
Sequence = UCCGAGGGCAGCGGUGGGAGCACACCCGGCUGGCACACGAGGGAGGAGCAGCCGCCGUCGGCCGCUGAGGGCUACGCCUCGCAGGACGUGUUCAGCGCCACCGAGACCAGCCUGUGGUAC; result = 0.164 ratio
Sequence = GUCUUCUCUUCUUCCUGUUUGUUCUCCCCGUGUUGUCCUCCUGCUGGCCAAGCGGCCUCUCCGCCGUGGUGGGUUUGGUGAAGGUAUCUUCUCUACCCAGCGCUUGACCUGAGUGGUGUG; result = 0.355 ratio
Sequence = UUCAUUCAUGCUAAUGUUGACAUUGACUUAAUUAUCACAGAAGAACCUGAGAUUGGCAAUACCGAAAAACCAGUAGAAAUUUUUCAUAUAAUAGAACAUUUUUGUCUUGGUAGAAGACGC; result = 3.76 ratio
Sequence = UCUGAGACUUCUUUCUUCCUUCCUUUUUUUUUUUUUGUUUUUUUUUUUAAGAGCCUGUGACCGUUACUGUGGAGCAGCCAGUUCAUGGGGUCCCCCUUGGGGCCCCACACCCCGUCUCUC; result = 1.64 ratio
Sequence = UCAUCUACAUUUGCAAUUCCCCAAGAGCUAGAGAAAAGUGUACAGAUGUUUGAAUUGUUUUACCGCCAGCAUUUCAGUGGACGGAAGCUGACAUGGUUGCAUUAUCUCUGUACAGGUGAA; result = 0.547 ratio
Sequence = GACUUGCUUCUACAGGCUUGUCCUUUGGGUACUUUAUUGGAUGCUAACUUGCAGAAUUCACUGAACCGCAUUAAUUCCGUAUCUGUGACUCAGCCGCAAAAACAGCCAGCCUGGAAAGUU; result = 0.0998 ratio
Sequence = CUUCAGCAAGGUGGCCGCAUGCUCCCUGAGCUCUUCCAGUGUCACGGCUCUGCAGAUAACCCCGUUCUGCAUGCUUGGGGCAAGGAGACAAACUCAAAACUGAAAUCUCUAGGAGUGAGC; result = 0.0992 ratio
Sequence = AGCACAUGAUUUGGGAAUUACACUUUGUGACAUGGAUGAAUCUGCACUGACCCUUGGUACAACCGAUGUUUCUUAUCUGCCACAUUCAUCAGAAUACAGUGUUGGUCGAUGUAAGCACAC; result = 0.115 ratio
Sequence = GUGUUUCAGAUUUUAAAGUGAUCACGAUUUGGUAGAUUACAGAUAUUUUUUUGUUGUUGUUUCCGUUUUUUCUUUUUCUUUUUUUAAGUAAACAGUCAAGUCAGGUCAAGCAAGACGUUA; result = 0.772 ratio

Block 3 — technique: protein-binding microarray; form: double-stranded DNA, one strand shown; medium: in vitro; concentration: 250 nM; setting: 60-bp whole probe; added: salmon DNA 0.4 mg/ml; baseline: random background probes; reading: higher = stronger binding; quantity: log fluorescence; all sequences stand within: GCCTAGCAC … GTCTTGATTCGCTTGACGCTGCTG
Target: Interferon regulatory factor 7, full length, phosphomimetic (IRF7, Homo sapiens, UniProt Q92985, residues 1-503, S101K/S471D/S472D/S475D/S476D/S477D/S483D/S484D/S487D)
Target sequence (chain): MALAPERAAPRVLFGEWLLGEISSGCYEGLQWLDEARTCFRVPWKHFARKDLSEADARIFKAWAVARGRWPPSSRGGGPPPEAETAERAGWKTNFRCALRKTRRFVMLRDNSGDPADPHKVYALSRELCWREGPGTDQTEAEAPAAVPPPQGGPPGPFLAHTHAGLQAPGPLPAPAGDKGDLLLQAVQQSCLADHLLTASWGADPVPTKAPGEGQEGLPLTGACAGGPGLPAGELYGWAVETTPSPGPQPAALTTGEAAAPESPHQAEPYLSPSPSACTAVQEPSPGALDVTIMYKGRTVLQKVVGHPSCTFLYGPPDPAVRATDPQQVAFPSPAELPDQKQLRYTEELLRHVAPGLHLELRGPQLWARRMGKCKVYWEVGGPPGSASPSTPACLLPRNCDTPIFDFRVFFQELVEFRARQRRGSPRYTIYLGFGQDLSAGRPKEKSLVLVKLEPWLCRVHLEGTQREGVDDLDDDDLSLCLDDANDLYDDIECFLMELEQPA
Sequence = GACGCTATCGGGACTGGGGACGTGCTA; result = -0.165 z-score
Sequence = TTTGTTTCCATTTTCTGAATGTGCTAG; result = 6.16 z-score
Sequence = TCATACATGGGTATAGAACTGTGCTAG; result = -0.156 z-score
Sequence = CACTATTTAAGGCCTATGCACGTGCTA; result = 0.584 z-score
Sequence = TTAGATATCGGGACTGGCTTAGTGCTA; result = -0.478 z-score
Sequence = GTCGATATCAGTTTCGAGACGTGCTAG; result = 4.91 z-score
Sequence = TTAGCTATCAGTTTCGATTAGTGCTAG; result = 7.57 z-score
Sequence = TTAGGTGTCGGGTTTCGGTTAGTGCTA; result = 4.88 z-score
Sequence = TTATGTCTCGGTCTCGGTTAGTGCTAG; result = 2.02 z-score
Sequence = TCAATATTATATCTGTGACTGTGCTAG; result = 0.11 z-score
Sequence = TCAAGCCTCTGTTTTGAACTGTGCTAG; result = -0.0726 z-score
Sequence = TTAGGTATGGGGTTTCGGTTAGTGCTA; result = 4.89 z-score
Sequence = GTCGTCACTGCCATAATGCGGTGCTAG; result = -0.494 z-score
Sequence = GACGGACTCGACACTGGGGACGTGCTA; result = -0.219 z-score
Sequence = TCATTTTTGGTTTCTGGACTGTGCTAG; result = 2.18 z-score
Sequence = TTAGAACTGGGGACTGGATAAGTGCTA; result = -0.509 z-score
Sequence = TTAAATATCGGGACTGGATTAGTGCTA; result = 0.143 z-score
Sequence = TTAGGTTTTGACACTGGGTTAGTGCTA; result = -0.285 z-score
Sequence = GACGTTCTCCTTCTCCTGACGTGCTAG; result = 0.532 z-score
Sequence = GACGGTTTCGAACTGGGGACGTGCTAG; result = 4.61 z-score
Sequence = TGAGGTTTCGACTTTCGGTTAGTGCTA; result = 11.2 z-score
Sequence = AGGAATTTCCCACTTTCAGTGTGCTAG; result = 2.25 z-score
Sequence = GACGGACTGGATCTCGGGACGTGCTAG; result = -0.532 z-score
Sequence = GTAGGTATCGGTCTCGGTTAGTGCTAG; result = 1.51 z-score
Sequence = GACGGTCTCGGACTGCGGACGTGCTAG; result = 0.0457 z-score

Block 4 — technique: RNA Bind-n-Seq; form: RNA; medium: in vitro; concentration: 200 nM; setting: whole 134-nt RNA, ends assumed; added: 150 mM LiCl; baseline: input library; reading: higher = stronger binding; quantity: log2 enrichment; library: 7-deaza-guanosine replaces G
Target: Fragile X messenger ribonucleoprotein 1, C-terminal low-complexity region (Fmr1, Mus musculus, UniProt P35922)
All sequences stand within: GGGAGUUCUACAGUCCGACGAUC … UGGAAUUCUCGGGUGUCAAGG
Sequence = CUGUGCUACACAUCGUAUGUACCGAAUCGGGAAAAAAAGGGGAAAAAAAGGGAAAAAAAGGGAAAGUAUUAUGUUACGCCGUUCGGAUCU; result = 0.326
Sequence = CAAGUCCUGUGCUACACAUCGUAUGUACCGAAUCGGUUUGGGUUUGGGGUUUGGGAAAGUAUUAUGUUACGCCGUUCGGAUCUGCACUUC; result = -1.55
Sequence = GUCCUGUGCUACACAUCGUAUGUACCGAAUCAAACCCCCAAAUUUUUUUAAAUUUAAAAAAGUAUUAUGUUACGCCGUUCGGAUCUGCAC; result = 0.544
Sequence = UCCUCAAGUCCUGUGCUACACAUCGUAUGUACCGAAUCGGUGGUGGGUGGGAAAGUAUUAUGUUACGCCGUUCGGAUCUGCACUUCCAGC; result = 1.15
Sequence = AGCCGAGCGGGAACGGAACCGACAGCUGGAGCGAGAGAAACGUCGGGAGCACAGUCGGGAGAGGGACAGGGAGAGAGAGAGAGAAAGGGA; result = 1.56
Sequence = CACAGACAACACGCACCCACACAGACACAGAGGGAAGAAAUUGGGAUGGGGACAGGGUGCACAGCAGGGCGGGGUAGGACCCCAGCCCCU; result = -0.97
Sequence = GCAGGCAGUAAAAACAAAUGGAAAUGCUUCGGAUAGUGGCAGGGGUGGGGGUUGCUAAGGAAAGGGUGGGAUGGGAGUGGGUAAAGAGUU; result = 1.31
Sequence = CCUCAAGUCCUGUGCUACACAUCGUAUGUACCGAAUCGGGGUGGGUGGUGGGAAAGUAUUAUGUUACGCCGUUCGGAUCUGCACUUCCAG; result = -0.429
Sequence = CUCAAGUCCUGUGCUACACAUCGUAUGUACCGAAUCGGCCGGCCGGGCCGGGGAAAGUAUUAUGUUACGCCGUUCGGAUCUGCACUUCCA; result = 0.649
Sequence = CAAGUCCUGUGCUACACAUCGUAUGUACCGAAUCGGGUUUGGGUUUGGGGUUUGGGAAAGUAUUAUGUUACGCCGUUCGGAUCUGCACUU; result = -1.76
Sequence = UGGGAGGUGGAUUUUGUUUAUUUUUUUAGCUCAUUUCCAGGGGUGGGAAUUUUUUUUUAAGAUGUGUCAUGAAUAAAGUUGUUUUUGAAA; result = 0.152
